Results of several laboratories.
Protocols differ between the studies behind these lines.
Organism: Escherichia coli

Compound | test | system | conditions | MIC
CC(C)C[C@@H]1NC(=O)[C@H](CCCCN)NC(=O)CNC(=O)[C@H]2CCCN2C(=O)[C@H](CCCCN)NC(=O)[C@H](CC(C)C)NC(=O)[C@H](CCCCN)NC(=O)[C@H](CC(C)C)NC(=O)[C@H](CCCCN)NC(=O)C(N)CCC=CCCCC(C(N)=O)NC(=O)[C@H](CCCCN)NC(=O)[C@H](CC(C)C)NC(=O)[C@H](CCCCN)NC1=O (some centres unmarked) | broth microdilution | ATCC 25922, Mueller-Hinton broth | 18 h, 37 °C | 8 µM
CC[C@H](C)[C@H](NC(=O)[C@H](CCCCN)NC(=O)[C@H](CCCCN)NC(=O)[C@H](Cc1ccccc1)NC(=O)[C@H](Cc1ccccc1)NC(=O)[C@H](CCCCN)NC(=O)[C@H](CCCCN)NC(=O)[C@H](Cc1ccccc1)NC(=O)[C@H](CCCNC(=N)N)NC(=O)[C@@H](N)CCCCN)C(=O)N[C@@H](CCCCN)C(=O)N[C@@H](CCCCN)C(=O)N[C@@H](CO)C(=O)N[C@H](C(=O)N[C@@H](CCCCN)C(=O)N[C@@H](CCCCN)C(=O)N[C@@H](CCCNC(=N)N)C(=O)N[C@H](C(=O)N[C@@H](CCCCN)C(=O)N[C@@H](CCCCN)C(=O)N[C@@H](CC(C)C)C(=O)N[C@@H](Cc1ccccc1)C(=O)N[C@@H](CCCCN)C(=O)N[C@@H](CCCCN)C(=O)N1CCC[C@H]1C(=O)N[C@@H](CCCNC(=N)N)C(=O)N[C@H](C(=O)N[C@H](C(=O)N1CCC[C@H]1C(=O)N[C@H](C(=O)N[C@@H](CO)C(=O)N[C@H](C(=O)N1CCC[C@H]1C(=O)N[C@@H](Cc1ccccc1)C(=O)O)[C@@H](C)CC)[C@@H](C)CC)[C@@H](C)CC)C(C)C)C(C)C)C(C)C | broth microdilution | E27 clinical isolate | 20 h | 4 µg/mL
CC1(C)[C@H](NC(=O)/C(=N\OCC(=O)N2CCC(C(=O)O)CC2)c2csc(N)n2)C(=O)N1OS(=O)(=O)O | agar dilution | 08-85, mcr-1 |  | 8 µg/mL
CC[C@H](C)[C@H](NC(=O)[C@@H](NC(=O)[C@H](CCCCN)NC(=O)[C@H](CCC(N)=O)NC(=O)[C@@H](NC(=O)[C@H](Cc1c[nH]c2ccccc12)NC(=O)[C@H](CCCCN)NC(=O)[C@H](CCCCN)NC(=O)[C@H](CC(C)C)NC(=O)[C@H](CCCNC(=N)N)NC(=O)[C@H](Cc1ccccc1)NC(=O)[C@@H](N)C(C)C)[C@@H](C)CC)C(C)C)C(N)=O |  |  | 24 h, 37 °C, Mueller-Hinton broth, NH4Cl 6 µM | 64 µM
CCCC[C@H](NC(=O)[C@H](Cc1ccc(O)cc1)NC(=O)[C@@H]1CCCN1C(=O)[C@@H]1CCCN1C(=O)[C@H](CCCCN)NC(=O)[C@H](CC(=O)O)NC(=O)[C@@H](N)C(C)C)C(=O)N1CCC[C@H]1C(=O)N[C@@H](CCCNC(=N)N)C(=O)N1CCC[C@H]1C(=O)N[C@@H](CCCNC(=N)N)C(=O)N1CCC[C@H]1C(=O)N1CCC[C@H]1C(=O)N[C@@H](CCCNC(=N)N)C(=O)N[C@H](CCCNC(=N)N)C(=O)N[C@H](C(=O)N[C@@H](Cc1ccc(O)cc1)C(=O)N[C@@H](CC(N)=O)C(=O)N[C@H](CCCNC(=N)N)C(N)=O)[C@@H](C)CC | broth microdilution | ATCC 25922 | 18 h, 37 °C, 25% MHB2 | 8 µg/mL
CN[C@@H]1[C@H](O)[C@H](NC)[C@H]2O[C@]3(O)[C@H](O[C@@H]2[C@H]1O)O[C@H](C)C[C@H]3NC(=O)Cc1cscn1 | microbial growth, broth dilution | K12 |  | 100 µg/mL
CCCCCCCC(=O)N[C@@H](CCN)C(=O)N[C@H](C(=O)N[C@@H](CCN)C(=O)N[C@H]1CCNC(=O)[C@H]([C@@H](C)O)NC(=O)[C@H](CCN)NC(=O)[C@H](CCN)NC(=O)[C@H](CCc2ccccc2)NC(=O)[C@@H](CC(C)C)NC(=O)[C@H](CCN)NC1=O)[C@@H](C)O | broth microdilution | ATCC 25922 |  | < 0.125 µg/mL
CO[C@@H](C(N)=O)[C@H](NC(=O)c1ccc(NC(=O)[C@@H](N)Cc2ccc(O)cc2)cc1)C(=O)Nc1ccc(C(=O)Nc2ccc(C(=O)Nc3ccc(C(=O)O)cc3)c(O)c2OC(C)C)cc1 |  | MerR family clone | 16 h, 37 °C | > 8 µg/mL
CC[C@H](C)[C@@H]1NC(=O)CNC(=O)[C@H](CCCCN)NC(=O)[C@H](Cc2ccc(O)cc2)NC(=O)[C@@H]2CSSC[C@H](NC1=O)C(=O)N[C@@H](Cc1ccc(O)cc1)C(=O)N[C@@H](CCCCN)C(=O)N[C@@H](CCCCN)C(=O)N[C@H](C(=O)N[C@@H](CCCCN)C(N)=O)CSSC[C@H](NC(=O)[C@H](Cc1c[nH]c3ccccc13)NC(=O)[C@@H](N)CCCCN)C(=O)N[C@@H](Cc1ccccc1)C(=O)N[C@@H](CCCCN)C(=O)N[C@@H](C(C)C)C(=O)N2 | broth dilution | K12 BW25113, Mueller-Hinton II broth | 18 h, 37 °C | 3.91 µg/mL
CC[C@H](C)[C@H](NC(=O)[C@@H](CCCNC(=N)N)NC(=O)[C@H](CCCNC(=N)N)NC(=O)[C@H](C)NC(=O)[C@H](Cc1c[nH]c2ccccc12)NC(=O)[C@H](CCCNC(=N)N)NC(=O)[C@@H]1CCCN1C(=O)[C@H](CCCNC(=N)N)NC(=O)[C@@H]1CCCN1C(=O)[C@H](CC(C)C)NC(=O)[C@H](Cc1ccc(O)cc1)NC(=O)[C@@H]1CCCN1C(=O)[C@@H]1CCCN1C(=O)[C@H](CCCCN)NC(=O)[C@H](CC(=O)O)NC(=O)[C@@H](N)C(C)C)C(=O)N[C@@H](Cc1ccc(O)cc1)C(=O)N[C@@H](CC(N)=O)C(=O)N[C@H](CCCNC(=N)N)C(N)=O | broth microdilution | ATCC 25922 | 18 h, 37 °C, 25% MHB2 | 8 µg/mL
CC(C)C[C@H](NC(=O)[C@@H](NC(=O)[C@H](CCCCN)NC(=O)[C@H](CCCCN)NC(=O)[C@H](CC(C)C)NC(=O)[C@H](Cc1c[nH]c2ccccc12)NC(=O)[C@H](CCCCN)NC(=O)[C@H](CC(C)C)NC(=O)[C@H](CC(C)C)NC(=O)[C@H](CCCCN)NC(=O)[C@H](CCCCN)NC(=O)[C@@H](N)C(C)C)C(C)C)C(N)=O |  |  | 24 h, 37 °C, Mueller-Hinton broth, MgCl2 1 mM | 64 µM
CC(C)C[C@@H](NC(=O)[C@@H](CCCNC(=N)N)NC(=O)[C@H](N)CCCNC(=N)N)C(=O)N[C@H](CC(C)C)C(=O)N[C@H](CCCNC(=N)N)C(=O)N[C@H](CCCCN)C(=O)N[C@H](CC(C)C)C(=O)N[C@H](CCCCN)C(=O)NCC(=O)N[C@H](CCCCN)C(=O)N[C@H](CCCCN)C(=O)N[C@H](CC(C)C)C(=O)N[C@H](Cc1ccc(O)cc1)C(=O)N[C@H](CC(C)C)C(=O)N[C@H](Cc1ccc(O)cc1)C(=O)N[C@H](Cc1ccccc1)C(=O)N[C@H](CCCCN)C(=O)N[C@H](CC(C)C)C(=O)N[C@H](CCC(N)=O)C(=O)N[C@H](CC(C)C)C(=O)N[C@H](CC(C)C)C(=O)N[C@H](CCCCN)C(=O)N[C@H](CCCCN)C(N)=O |  | KCTC 1682, Mueller-Hinton broth | added: 1 mM MgCl2 | 16 µM
CC[C@H](C)[C@H](NC(=O)[C@@H](CCCNC(=N)N)NC(=O)[C@H](CCCNC(=N)N)NC(=O)[C@H](CO)NC(=O)[C@H](Cc1c[nH]c2ccccc12)NC(=O)[C@H](CCCNC(=N)N)NC(=O)[C@@H]1CCCN1C(=O)[C@H](CCCNC(=N)N)NC(=O)[C@@H]1CCCN1C(=O)[C@H](CC(C)C)NC(=O)[C@H](Cc1ccc(O)cc1)NC(=O)[C@@H]1CCCN1C(=O)[C@@H]1CCCN1C(=O)[C@H](CCCCN)NC(=O)[C@H](CC(=O)O)NC(=O)[C@@H](N)C(C)C)C(=O)N[C@@H](Cc1ccc(O)cc1)C(=O)N[C@@H](CC(N)=O)C(=O)N[C@H](CCCNC(=N)N)C(N)=O | broth microdilution | MC4100 | 18 h, 37 °C, 25% MHB2 | 8 µg/mL
Cn1nc(CCN)c(=O)c2c(=O)[nH]c(N)nc21 | microbial growth, broth dilution | BW25113 | 18 h | > 100 µg/mL
CC[C@H](C)[C@H](NC(=O)[C@@H](CCCNC(=N)N)NC(=O)[C@H](CCCNC(=N)N)NC(=O)[C@@H]1CCCN1C(=O)[C@@H]1CCCN1C(=O)[C@H](CCCNC(=N)N)NC(=O)[C@@H]1CCCN1C(=O)[C@H](CCCNC(=N)N)NC(=O)[C@@H]1CCCN1C(=O)[C@@H](NC(=O)[C@H](Cc1ccc(O)cc1)NC(=O)[C@@H]1CCCN1C(=O)[C@@H]1CCCN1C(=O)[C@H](CCCCN)NC(=O)[C@H](CC(=O)O)NC(=O)[C@@H](N)C(C)C)C(C)(C)C)C(=O)N[C@@H](Cc1ccc(O)cc1)C(=O)N[C@@H](CC(N)=O)C(=O)N[C@H](CCCNC(=N)N)C(N)=O | broth microdilution | BW25113 | 18 h, 37 °C, 25% MHB2 | 16 µg/mL
CC(C)[C@H](NC(=O)[C@H](CCCNC(=N)N)NC(=O)[C@H](Cc1ccccc1)NC(=O)[C@H](CS)NC(=O)[C@@H](N)Cc1c[nH]c2ccccc12)C(=O)N[C@@H](CS)C(=O)N[C@@H](Cc1ccccc1)C(=O)N[C@@H](CCCCN)C(=O)NCC(=O)N[C@@H](Cc1ccccc1)C(=O)N[C@@H](CS)C(=O)N[C@@H](Cc1ccc(O)cc1)C(=O)N[C@@H](CCCNC(=N)N)C(=O)N[C@@H](Cc1ccccc1)C(=O)N[C@@H](CS)C(=O)O | broth microdilution | K88, Mueller-Hinton broth | 37 °C | 70.3 µg/mL
CCn1c(-c2ccc(OC)cc2)c(-c2ccc(OC)cc2)n(Cc2c(C)cc(C)cc2C)c1=[Se] | broth microdilution | carbapenem-resistant BAA-2140 | 24 h | > 40 µM
CC(C)Oc1ccc(B(O)O)c(F)n1 | bacterial growth | CTX-M-14 ESBL clinical isolate | without cefotaxime | 1020 µg/mL
CC[C@H](C)[C@H](NC(=O)[C@H](CCCCN)NC(=O)[C@H](CCCNC(=N)N)NC(=O)[C@H](CCCCN)NC(=O)[C@H](CC(C)C)NC(=O)[C@H](Cc1ccccc1)NC(=O)[C@H](CCC(=O)O)NC(=O)[C@H](CCCCN)NC(=O)[C@@H](NC(=O)[C@@H](NC(=O)[C@H](CCC(=O)O)NC(=O)[C@H](C)NC(=O)CNC(=O)[C@@H](N)CCCNC(=N)N)[C@@H](C)O)C(C)C)C(=O)N[C@@H](CCCNC(=N)N)C(=O)N[C@@H](CCC(=O)O)C(=O)N[C@@H](CCCNC(=N)N)C(=O)NCC(=O)N[C@H](C(=O)N[C@@H](CCCCN)C(=O)N[C@@H](C)C(=O)N[C@H](C(=O)N[C@H](C(=O)N[C@@H](C)C(=O)N[C@@H](Cc1c[nH]c2ccccc12)C(=O)O)[C@@H](C)CC)C(C)C)[C@@H](C)O | broth microdilution | K88, Mueller-Hinton broth | 37 °C | 35.2 µg/mL
CC[C@H](C)[C@H](NC(=O)[C@@H](CCCNC(=N)N)NC(=O)[C@H](CCCNC(=N)N)NC(=O)[C@@H]1CCCN1C(=O)[C@@H]1CCCN1C(=O)[C@H](Cc1c[nH]cn1)NC(=O)[C@@H]1CCCN1C(=O)[C@H](CCCNC(=N)N)NC(=O)[C@@H]1CCCN1C(=O)[C@H](CC(C)C)NC(=O)[C@H](Cc1ccc(O)cc1)NC(=O)[C@@H]1CCCN1C(=O)[C@@H]1CCCN1C(=O)[C@H](CCCCN)NC(=O)[C@H](CC(=O)O)NC(=O)[C@@H](N)C(C)C)C(=O)N[C@@H](Cc1ccc(O)cc1)C(=O)N[C@@H](CC(N)=O)C(=O)N[C@H](CCCNC(=N)N)C(N)=O | broth microdilution | BW25113 | 18 h, 37 °C, 25% MHB2 | 8 µg/mL

For quick reference, copied from above:
Compound | test | system | conditions | MIC
CN[C@@H]1[C@H](O)[C@H](NC)[C@H]2O[C@]3(O)[C@H](O[C@@H]2[C@H]1O)O[C@H](C)C[C@H]3NC(=O)Cc1cscn1 | microbial growth, broth dilution | K12 |  | 100 µg/mL
CC(C)Oc1ccc(B(O)O)c(F)n1 | bacterial growth | CTX-M-14 ESBL clinical isolate | without cefotaxime | 1020 µg/mL
Cn1nc(CCN)c(=O)c2c(=O)[nH]c(N)nc21 | microbial growth, broth dilution | BW25113 | 18 h | > 100 µg/mL
